Measurements from different studies.
Protocols differ between the studies behind these lines. Numbers after ± are the reported error.
HDAC6 ZnF-UBD domain: Protein deacetylase HDAC6, ZnF-UBD domain (HDAC6, Homo sapiens, UniProt Q9UBN7)
USP13 ZnF-UBD domain: Ubiquitin carboxyl-terminal hydrolase 13, ZnF-UBD domain (USP13, Homo sapiens, UniProt Q92995)

CC[C@H](C)[C@H](NC(=O)[C@@H](NC(=O)[C@H](CCC(=O)O)NC(=O)[C@H](CO)NC(=O)[C@@H]1CCCN1C(=O)[C@H](CCC(N)=O)NC(=O)[C@H](C)NC(=O)[C@H](CO)NC(=O)[C@@H](N)CO)[C@@H](C)O)C(=O)N[C@@H](CC(C)C)C(=O)O  Kd (Protein scribble homolog, PDZ3 domain (SCRIB, Homo sapiens, UniProt Q14160); binding, fluorescence polarization; solution; Scribble PDZ3 domain): 18.3 µM
C[n+]1cn([C@@H]2O[C@H](COP(=O)(O)OP(=O)(O)OP(=O)(O)OC[C@H]3O[C@@H](n4cnc5c(=O)[nH]c(N)nc54)[C@H](O)[C@@H]3O)[C@@H](O)[C@H]2O)c2nc(N)[nH]c(=O)c21  Kd (EIF4E2 (Homo sapiens, UniProt O60573); isothermal titration calorimetry; pH 7.5, 20 °C): 4 ± 1 µM
O=C(O)Cn1ccc2ccccc2c1=O  Kd (HDAC6 ZnF-UBD domain): 698 µM
C[C@H](O)C(=O)O  Kd (L166H-Q481H zinc sensor protein; binding, fluorescence lifetime; no Zn2+): 513 ± 83 µM
O=C(O)Cn1cc2ccccc2n1  Kd (USP13 ZnF-UBD domain): > 1000 µM
Nc1ncnc2c1ncn2[C@@H]1O[C@H](CO[P@](=O)(O)O[P@](=O)(O)O[P@@](=O)(O)S)[C@@H](O)[C@H]1O  Kd (GUK1 (Homo sapiens, UniProt Q16774, K17A); binding, ITC; 25 °C, together with: GMP): 140 ± 20 µM
Nc1nc2c(ncn2[C@H]2C[C@H](OP(=O)(O)OP(=O)(O)O)[C@@H](COP(=O)(O)OP(=O)(O)O)O2)c(=O)[nH]1  Kd (Guanosine-inosine kinase (gsk, Escherichia coli, UniProt P0AEW6)): 0.84 µM
CC(=O)N[C@H]1[C@H](O[C@H]2[C@H](O)[C@@H](NC(C)=O)C(O)O[C@@H]2CO)O[C@H](CO)[C@@H](O[C@@H]2O[C@H](CO)[C@@H](O)[C@H](O)[C@H]2NC(C)=O)[C@@H]1O (stereo partly shown)  Kd (Lysozyme C (LYZ, Gallus gallus, UniProt P00698); surface sampling native MS): 16.3 ± 2 µM
NC(=O)c1cc(-n2c(CCC(=O)O)nc3ccccc32)cs1  Kd (USP13 ZnF-UBD domain): 754 µM
Cc1cc2nc3c(=O)[nH]c(=O)nc-3n(C[C@H](O)[C@H](O)[C@H](O)COP(=O)(O)OP(=O)(O)OC[C@H]3O[C@@H](n4cnc5c(N)ncnc54)[C@H](O)[C@@H]3O)c2cc1C  Kd (Latent-transforming growth factor beta-binding protein 1 (LTBP1, Homo sapiens, UniProt Q14766); binding, MS pulldown competition; SW-620 cell lysate): 62 µM
Cn1cc(-c2ccc(-c3cncc(Cl)c3N3CCC4(CCNC4=O)CC3)cc2)cn1  log2 fold change (COLO 205; gene expression, microarray, refers to: CLHC1 mRNA; concentration not given, 6 h; reference: untreated cells): 1.54
CC[C@H](C)[C@H](NC(=O)[C@H](CCCNC(=N)N)NC(=O)[C@H](CCCCN)NC(=O)[C@@H]1CCCN1C(=O)[C@@H](N)CO)C(=O)N[C@@H](C)C(=O)O  Kd (N-terminal Xaa-Pro-Lys N-methyltransferase 1 (Homo sapiens, UniProt Q9BV86, D180K); ITC; 25 °C, together with: peptide): > 1000 µM
C[N+](C)(C)Cc1cccc(N=Nc2cccc(C[N+](C)(C)C)c2)c1  Kd (muscarinic receptor, Rana temporaria; antagonist, radioligand displacement; ventricle homogenate; together with: [3H]N-methylscopolamine): 4 to 5 µM
O=C(O)CCC(=O)N1CCc2ccccc21  Kd (HDAC6 ZnF-UBD domain): 95.6 µM
CC(=O)N([O-])CCCCCNC(=O)CCC(=O)N([O-])CCCCCNC(=O)CCC(=O)N([O-])CCCCCN.[Fe+3]  Kd (Iron(3+)-hydroxamate-binding protein YxeB (yxeB, Bacillus subtilis, UniProt P54941); binding, Trp fluorescence quenching; pH 7.4, together with: yxeB 100 nM): 0.048 ± 0.03 µM
Cc1cc(Nc2cc3ncccc3c(N[C@@H]3C[C@H]4CC[C@@H](C3)N4CCC#N)n2)n[nH]1  Kd (STK3 (Homo sapiens, UniProt Q13188); binding, KINOMEscan): 0.14 µM

For quick reference, copied from above:
Cn1cc(-c2ccc(-c3cncc(Cl)c3N3CCC4(CCNC4=O)CC3)cc2)cn1  log2 fold change (COLO 205; gene expression, microarray, refers to: CLHC1 mRNA; concentration not given, 6 h; reference: untreated cells): 1.54
CC(=O)N([O-])CCCCCNC(=O)CCC(=O)N([O-])CCCCCNC(=O)CCC(=O)N([O-])CCCCCN.[Fe+3]  Kd (Iron(3+)-hydroxamate-binding protein YxeB (yxeB, Bacillus subtilis, UniProt P54941); binding, Trp fluorescence quenching; pH 7.4, together with: yxeB 100 nM): 0.048 ± 0.03 µM
